Results gathered from unrelated publications.
Protocols differ between the studies behind these lines. Numbers after ± are the reported error.

| Compound | test | system | setting | scale | measurement | result |
| --- | --- | --- | --- | --- | --- | --- |
| CC[C@@H]1C[C@]1(NC(=O)[C@@H]1C[C@@]2(CN1C(=O)[C@@H](NC(=O)[C@@H](NC(=O)[C@@H]1CCCCN1C(C)C)C1CCCCC1)C(C)(C)C)C(C)(C)C21CCC1)C(=O)NS(=O)(=O)N1CCCC1 | item: abdominal pain | healthy human | oral, 10 mg, together with: ritonavir 100 mg | – | subjects with adverse event | 0% |
| CCN1CCCC1CNC(=O)c1cc(Br)cc(OC)c1O[11CH3] (stereo not drawn) | – | rhesus monkey, cerebellum | dose not given, 80 min, decay-corrected | reference: [18F]fallypride, higher than reference | cerebellar concentration difference | 70% |
| CC(C)[C@@H]1NC(=O)[C@H](Cc2ccccc2)NC(=O)[C@H](Cc2ccc(O)cc2)NC(=O)CCSSC[C@@H](C(=O)N2CCC[C@H]2C(=O)N[C@H](CCCNC(=N)N)C(=O)NCC(N)=O)NC(=O)[C@H](CCC(N)=O)NC1=O | – | Wistar rat | intravenous, 100 µg/kg single dose, 72 h | – | body weight | 226 ± 6.1 g |
| CC[C@H](C)[C@H](NC(=O)[C@H](Cc1ccccc1)NC(=O)[C@H](CC(=O)O)NC(=O)[C@H](CCCN)NC(=O)[C@H](Cc1ccccc1)NC(=O)[C@H](Cc1ccccc1)NC(=O)[C@H](CCCCN)NC(=O)[C@H](CCCN)NC(=O)[C@H](CC(C)C)NC(=O)[C@H](CCCNC(=N)N)NC(=O)[C@H](CCSC)NC(=O)[C@H](C)N)C(=O)N[C@@H](CC(C)C)C(=O)N[C@@H](CCC(N)=O)C(=O)N[C@@H](CCCNC(=N)N)C(=O)N[C@@H](CCCCN)C(=O)N[C@@H](CCCCN)C(=O)O | circular dichroism | 20% TFE in PBS | 200 µM, pH 7.4, 25 °C | – | helicity | 18.5% |
| CC[C@H](C)[C@H](NC(=O)[C@H](CC(=O)O)NC(=O)[C@H](CO)NC(=O)[C@H](CCC(N)=O)NC(=O)[C@H](C)NC(=O)[C@H](CC(=O)O)NC(=O)[C@H](CCC(=O)O)NC(=O)[C@H](Cc1c[nH]cn1)NC(=O)[C@H](Cc1ccc(O)cc1)NC(=O)[C@H](C)NC(=O)[C@H](CC(=O)O)NC(=O)[C@H](CCC(=O)O)NC(=O)[C@H](Cc1c[nH]cn1)NC(=O)[C@H](Cc1ccc(O)cc1)NC(=O)[C@H](C)NC(=O)[C@H](CC(=O)O)NC(=O)[C@H](CCC(=O)O)NC(=O)[C@H](Cc1c[nH]cn1)NC(=O)[C@H](Cc1ccc(O)cc1)NC(=O)[C@H](C)NC(=O)[C@H](CC(=O)O)NC(=O)[C@H](CCC(=O)O)NC(=O)[C@H](Cc1c[nH]cn1)NC(=O)[C@H](Cc1ccc(O)cc1)NC(=O)[C@H](C)NC(=O)[C@H](CC(=O)O)NC(=O)[C@H](CCC(=O)O)NC(=O)[C@H](Cc1c[nH]cn1)NC(=O)[C@@H](N)Cc1ccc(O)cc1)C(=O)N[C@H](C(=O)N[C@@H](C)C(=O)N[C@@H](Cc1c[nH]cn1)C(=O)N[C@@H](CC(C)C)C(=O)N[C@@H](CC(C)C)C(=O)O)C(C)C | – | normal mouse | dose not given | – | BUN | 18.6 ± 2.1 mg/dL |
| CC[C@H](C)[C@@H]1NC(=O)[C@H](CCCCN)NC(=O)[C@H](CCCCN)NC(=O)[C@H](Cc2ccc(O)cc2)NC(=O)[C@H](CC(C)C)NC(=O)[C@@H]2CCCN2C(=O)[C@H](C)NC(=O)CNC(=O)CNC(=O)[C@H](CO)NC(=O)CNC(=O)CNC(=O)[C@H](CO)NC(=O)[C@H](CCC(=O)O)NC(=O)[C@H](CC(C)C)NC(=O)[C@H](CC(C)C)NC(=O)[C@H](CCCCN)NC(=O)[C@H](CCCCN)NC(=O)[C@H]([C@@H](C)CC)NC(=O)[C@H]([C@@H](C)CC)NC(=O)[C@H](CCCCN)NC(=O)[C@H](CCCCN)NC(=O)[C@H](Cc2ccc(O)cc2)NC(=O)[C@H](CC(C)C)NC(=O)[C@@H]2CCCN2C(=O)CNC(=O)CNC(=O)CSC[C@@H](C(N)=O)NC(=O)[C@H](CC(C)C)NC(=O)[C@H](CCCCN)NC(=O)[C@H](CCCCN)NC(=O)[C@H]([C@@H](C)CC)NC1=O | – | 25% human serum | 50 µM, 24 h | reference: 0 h control | remaining intact peptide | 66 ± 2.5% |
| CCN(CC)c1ccc2c(-c3ccccc3C(=O)OCCC[18F])c3ccc(=[N+](CC)CC)cc-3oc2c1 | microPET | rat, heart | dose not given, 5 min post injection | – | radioactivity concentration | 66 ± 6 kBq/cm³ |
| CCCCCCCCCCCCCCC(=O)O.O=C1CCCC2C3CCCN4CCCC(CN12)C34 (stereo not drawn) | shake-flask | simulated gastric fluid | pH 1.2, 37 °C | – | log octanol-water partition coefficient | -1.12 |
| O=C(NCCCCCCCn1ccc2ccccc21)Oc1ccccc1 | – | rat liver S9 fraction | 30 min, together with: NADPH | – | parent remaining | 59 ± 3% |
| CC(C)C[C@H](NC(=O)[C@H](CCCCN)NC(=O)[C@H](CCC(=O)O)NC(=O)[C@H](C)NC(=O)[C@@H](NC(=O)[C@H](CCCCN)NC(=O)[C@H](CC(=O)O)NC(=O)[C@H](Cc1ccc(O)cc1)NC(=O)[C@H](Cc1ccccc1)NC(=O)[C@H](C)NC(=O)[C@H](CCCCN)NC(=O)[C@H](CC(C)C)NC(=O)[C@H](Cc1c[nH]c2ccccc12)NC(=O)[C@@H](N)CC(=O)O)C(C)C)C(=O)N[C@@H](CCCCN)C(=O)N[C@@H](CCC(=O)O)C(=O)N[C@@H](C)C(=O)N[C@@H](Cc1ccccc1)C(=O)N1CCC[C@H]1C(=O)N[C@@H](CC(=O)O)C(=O)N[C@@H](Cc1c[nH]c2ccccc12)C(=O)N[C@@H](C)C(=O)N[C@@H](CCCCN)C(=O)N[C@@H](C)C(=O)N[C@@H](C)C(=O)N[C@@H](Cc1ccc(O)cc1)C(=O)N[C@@H](CC(=O)O)C(=O)N[C@@H](CCCCN)C(=O)N[C@@H](C)C(=O)N[C@@H](C)C(=O)N[C@@H](CCC(=O)O)C(=O)N[C@@H](CCCCN)C(=O)N[C@@H](C)C(=O)N[C@@H](CCCCN)C(=O)N[C@@H](CCC(=O)O)C(=O)N[C@@H](C)C(=O)N[C@@H](C)C(=O)O | – | cynomolgus monkey male, plasma | intravenous infusion, 8 mg/kg, day 1, 30 min infusion | – | Tmax | 0 h |
| COc1ccc(F)cc1S(=O)(=O)Nc1cnc2c(c1)C(=O)NCCO2 | – | male cynomolgus monkey, plasma | intravenous, 0.3 mg/kg, single dose | – | Vd | 0.221 L/kg |
| O=P1(NCCCl)NCCCO1 (stereo not drawn) | – | rat, plasma | intravenous, 10 mg/kg, together with: ketoconazole 40 mg/kg oral 50 min before | – | Tmax | 3.67 ± 1.21 h |
| CN(C)C(CNC(=O)Nc1cc(C(F)(F)F)ccc1N1CCOCC1)c1ccncc1 (stereo not drawn) | – | mouse, serum | intraperitoneal, 240 mg/kg single dose | – | serum glucose | 236 mg/dL |
| COC(=O)C[C@](O)(CCCC(C)(C)OC(C)=O)C(=O)O[C@@H]1C(OC)=C[C@]23CCCN2CCc2cc4c(cc2[C@H]13)OCO4 | – | CD1 mouse, kidney | subcutaneous, 1 mg/kg, 2 h | – | tissue concentration | 191 ng/mL |
| CN[C@](C)(C[18F])C(=O)O | – | SCID mouse U87 xenograft, kidney | 60 min, post injection | – | tissue uptake | 4.2 ± 1.7 %ID/g |
| CCCCCCCCCCCCCCCCCC(=O)Nc1ccn(C2OC(CO)C(O)C2(F)F)c(=O)n1 (stereo not drawn) | – | mouse, serum | intravenous, 30 mg/kg gemcitabine equivalent, 24 h | – | AST activity | 76 ± 18 mU/mL |
| [3H]c1sc(C)nc1C=C(C)C1CC2C(CCCC(C)C(O)C(C)C(=O)C(C)(C)C(O)CC(=O)O1)N2CCO (stereo not drawn) | whole-body autoradiography | CD2F1 mice, M109 FR− tumour periphery | intravenous, 2.2 nmol/kg, 48 h | – | radioactivity in tissue | 1.4 ± 0.3 µg-eq/g |
| CC(=O)N(O)CCC[C@@H]1NC(=O)CNC(=O)[C@H](CO)NC(=O)CNC(=O)[C@H](CCCN(O)C(C)=O)NC(=O)[C@H](CCCN(O)C(C)=O)NC1=O [gallium-68 labelled] | – | BALB/c mice, noninfected, blood | intravenous, dose not given, 90 min | – | blood level | 16.1 ± 1.07 %ID/g |
| CCN(Cc1ccccc1)C(=O)CCc1nc(CN2CCN(C(=O)Cc3ccc(OC)c(OC)c3)CC2)no1 | LC-MS | rat, DRG | intravenous, 1 mg/kg, 5 min | – | concentration | 280 ± 32 ng/g |
| c1ccc(C2(CCNC3CCC4(SCCS4)c4ccccc43)CCOC3(CCCC3)C2)nc1 (stereo not drawn) | – | rat | intravenous, 0.5 mg/kg | – | AUC(0-24 h) | 453 ng·h/mL |
| [2H]C([2H])([2H])C([2H])([2H])C([2H])([2H])OC(C(=O)OC1CCNCC1)(c1ccccc1)c1ccccc1 | item: boredom | healthy Japanese male | oral, 10 mg, 16 days, multiple ascending dose | – | adverse events | 14.3% |

A few entries again:
| Compound | test | system | setting | scale | measurement | result |
| --- | --- | --- | --- | --- | --- | --- |
| COC(=O)C[C@](O)(CCCC(C)(C)OC(C)=O)C(=O)O[C@@H]1C(OC)=C[C@]23CCCN2CCc2cc4c(cc2[C@H]13)OCO4 | – | CD1 mouse, kidney | subcutaneous, 1 mg/kg, 2 h | – | tissue concentration | 191 ng/mL |
| CN[C@](C)(C[18F])C(=O)O | – | SCID mouse U87 xenograft, kidney | 60 min, post injection | – | tissue uptake | 4.2 ± 1.7 %ID/g |
| CCCCCCCCCCCCCCCCCC(=O)Nc1ccn(C2OC(CO)C(O)C2(F)F)c(=O)n1 (stereo not drawn) | – | mouse, serum | intravenous, 30 mg/kg gemcitabine equivalent, 24 h | – | AST activity | 76 ± 18 mU/mL |
